Published values collected from several papers.
Protocols differ between the studies behind these lines.
Target: D(2) dopamine receptor (DRD2, Homo sapiens, UniProt P14416)
Chain of UniProt P14416 (whole entry, looked up): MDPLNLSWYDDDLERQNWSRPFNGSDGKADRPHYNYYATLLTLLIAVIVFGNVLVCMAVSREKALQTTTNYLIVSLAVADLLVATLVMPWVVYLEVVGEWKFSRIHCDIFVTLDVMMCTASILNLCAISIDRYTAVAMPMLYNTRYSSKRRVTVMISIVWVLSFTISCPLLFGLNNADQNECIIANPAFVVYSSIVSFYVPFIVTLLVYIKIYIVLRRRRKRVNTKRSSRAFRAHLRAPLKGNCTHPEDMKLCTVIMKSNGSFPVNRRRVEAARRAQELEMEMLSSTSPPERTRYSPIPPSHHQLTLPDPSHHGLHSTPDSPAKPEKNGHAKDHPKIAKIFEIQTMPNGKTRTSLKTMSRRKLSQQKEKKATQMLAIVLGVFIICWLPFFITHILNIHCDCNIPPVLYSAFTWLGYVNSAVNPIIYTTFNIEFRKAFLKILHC

`CC1Cc2ccccc2N1C(=O)CN1CCN(Cc2ccccc2)CC1` (stereo not drawn) gave an inhibition of 69% (ligand displacement, radioligand; 10 µM).
For `NS(=O)(=O)c1ccc(CCNCc2ccc(-c3ccccc3F)o2)cc1`, the inhibition was 22.5% (enzyme activity, inhibitor; 10 µM).
For `Cn1ccc2cc(-n3c(=O)[nH]c4sc5c(c4c3=O)CCCC5)ccc21`, the inhibition was 14% (radioligand binding; 10 µM).
The inhibition of `CCn1c2ccccc2c2cc(CNCCCn3ccnc3)ccc21` is reported as 34% (enzyme activity, inhibitor; 10 µM).
With `O=C(CN1CCO[C@@H](COc2cccc(Cl)c2)C1)N1CCc2ccccc21` the inhibition was 23.7% (ligand displacement, radioligand; 10 µM).
For `COc1cc(CNCC(O)c2ccccc2)cc(Cl)c1OCC(N)=O` (stereo not drawn), the inhibition was 8.63% (enzyme activity, inhibitor; 10 µM).
`CO[C@@H](C)c1c(NC(=O)Nc2cnc(-n3nccn3)c(C(F)(F)F)c2)cnc2sc(C)nc12` has an inhibition of 0.5% (ligand displacement, radioligand; 10 µM).
With `Cc1[nH]nc2c1N=C(c1ccccc1Cl)c1cnc(N3CCOCC3)cc1N2` the inhibition was 0% (10 µM, human off-target panel).
For `COC(=O)c1ccccc1NC(=O)CN1CCN(c2cccc(C(F)(F)F)c2)CC1`, the inhibition was 3.5% (enzyme activity, inhibitor; 10 µM).
`C[Si](C)(C)C[C@H](CN)CC(=O)O` gave an inhibition of 3% (binding, radioligand binding; 250 µM, together with: [3H]spiperone).
With `Brc1ccccc1-c1nnc(CSc2nnnn2-c2ccccc2)o1` the inhibition was -13% (ligand displacement, radioligand; 10 µM).
`c1ccc(OC[C@H]2CN(CCN3CCc4ccccc43)CCO2)nc1` gave an inhibition of 32.1% (ligand displacement, radioligand; 10 µM).
`COc1cc(CNCCc2ccc(F)cc2)cc(Cl)c1OCC(N)=O` has an inhibition of 27.9% (enzyme activity, inhibitor; 10 µM).
For `O=C1c2sc(-c3ccc(N4CCC(F)C4)nc3F)nc2CCN1c1cccnc1` (stereo not drawn), the inhibition was -8% (ligand displacement, radioligand; 1 µM).
`C[Si]1(C[C@H](CN)CC(=O)O)CCCC1` gave an inhibition of 3% (binding, radioligand binding; 70 µM, together with: [3H]spiperone).

Some of these lines once more:
`CC1Cc2ccccc2N1C(=O)CN1CCN(Cc2ccccc2)CC1` (stereo not drawn) gave an inhibition of 69% (ligand displacement, radioligand; 10 µM).
